Measured values gathered from unrelated publications.
Every numbered part comes from another study and shows a few of its results, in no order.

Set 1
Target: POU, POU domain (Salpingoeca helianthica)
Method: Spec-seq
Molecule type: double-stranded DNA, one strand shown
Matrix: in vitro
Tested at: not given
Notes: whole probe, mean of replicates
Relative to: not given
Reading: lower = stronger binding
All sequences stand within: GAGTCGTCTCGTCAGCAC … CCGTAGAGCACTCAGGTC
Construct (chain): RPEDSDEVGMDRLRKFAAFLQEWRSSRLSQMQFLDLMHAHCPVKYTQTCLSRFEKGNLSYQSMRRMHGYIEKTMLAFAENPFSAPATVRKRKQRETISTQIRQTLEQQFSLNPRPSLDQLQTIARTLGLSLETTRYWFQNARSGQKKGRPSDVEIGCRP
Oligonucleotide	relative binding energy
ATGCTGGG	1.36 ln ratio
CGGGTAAT	0.837 ln ratio
TAAGTAAT	0.144 ln ratio
AGATTAAT	-0.0884 ln ratio
ATGTGTAT	1.09 ln ratio
ATGCATAT	0.878 ln ratio
ATCGGAAT	1.16 ln ratio
ATACTAAT	0.816 ln ratio
ATGCTTTT	0.971 ln ratio
ATGCGATG	1.37 ln ratio
TGGATAAT	0.447 ln ratio
ATCGCAAT	1.52 ln ratio
TTTGTAAT	0.276 ln ratio
ATGCCAGG	1.4 ln ratio
TTAGTAAT	0.147 ln ratio
ATGCTGCC	1.34 ln ratio
ATGCCAAC	1.45 ln ratio
GCGCTAAT	0.605 ln ratio
TAGGTAAT	0.709 ln ratio
CACGTAAT	0.811 ln ratio
TTAATAAT	-0.858 ln ratio
ATTTCGAT	1.52 ln ratio
TGTGTAAT	0.586 ln ratio
TTTATAAT	-0.442 ln ratio
ATTGTGAT	1.14 ln ratio

Set 2
Target: Interferon regulatory factor 7, full length, phosphomimetic (IRF7, Homo sapiens, UniProt Q92985, residues 1-503, S471D/S472D/S475D/S476D/S477D/S483D/S484D/S487D)
Sequence of UniProt Q92985 (whole entry, unmodified, looked up): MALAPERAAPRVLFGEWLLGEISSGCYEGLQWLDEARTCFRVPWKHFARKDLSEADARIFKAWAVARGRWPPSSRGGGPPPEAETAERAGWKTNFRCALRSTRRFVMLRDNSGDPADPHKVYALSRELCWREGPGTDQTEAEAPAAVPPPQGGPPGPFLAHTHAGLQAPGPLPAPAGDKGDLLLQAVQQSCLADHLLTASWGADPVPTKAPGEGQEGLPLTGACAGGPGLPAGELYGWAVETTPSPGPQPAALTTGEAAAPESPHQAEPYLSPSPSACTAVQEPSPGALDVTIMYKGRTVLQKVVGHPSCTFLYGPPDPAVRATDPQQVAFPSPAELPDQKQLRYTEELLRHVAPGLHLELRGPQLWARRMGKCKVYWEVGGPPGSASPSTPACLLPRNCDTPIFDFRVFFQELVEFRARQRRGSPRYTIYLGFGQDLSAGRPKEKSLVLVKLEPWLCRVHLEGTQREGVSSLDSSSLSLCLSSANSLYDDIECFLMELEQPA
Method: protein-binding microarray
Molecule type: double-stranded DNA, one strand shown
Matrix: in vitro
Tested at: 2200 nM top
Notes: 60-bp whole probe
Together with: salmon DNA 0.4 mg/ml
Relative to: random background probes
Reading: higher = stronger binding
All sequences stand within: GCCTAGCAC … GTCTTGATTCGCTTGACGCTGCTG
Oligonucleotide	fitted relative affinity
TTCGATATCAGTCTCGATTAGTGCTAG	1.07 z-score
TCCTTCCACCATCTGATCAGGTGCTAG	1.99 z-score
GAGGAACTGAGTATCGAGACGTGCTAG	-0.578 z-score
TCATTCCTCTTTCTCTGACTGTGCTAG	2.92 z-score
AAGAATCAGGGGTTTTATCCGTGCTAG	-0.0993 z-score
TTAGGTATCGAACTGGGTTAGTGCTAG	0.00645 z-score
TTAGGTATCGACTATCTGTTAGTGCTA	0.147 z-score
GCACTCTTCTTTTTTTTCTTGTGCTAG	2.05 z-score
TTAGGTATCGACACTGGGCTAGTGCTA	-0.271 z-score
ATAGGTATCGGTATCGGTTAGTGCTAG	1.06 z-score
CAGCCAATCAGGACTCAGGGAGTGCTA	-0.883 z-score
TTTGGTGTCTTTTGTGGAAACGTGCTA	1.02 z-score
GACGGACTCGGTTTCGGGACGTGCTAG	4.21 z-score
GACGGTTTCGGTTCCGGGACGTGCTAG	11.6 z-score
TCACTTTTTTTTCTTTAACTGTGCTAG	2.67 z-score
CCACATATGCTTTTTAGAAAGTGCTAG	1.35 z-score

Set 3
Target: Centromere-binding protein 1, full length, N-terminal tag (CBF1, Saccharomyces cerevisiae, UniProt P17106, residues 1-351)
Sequence of UniProt P17106 (whole entry, looked up): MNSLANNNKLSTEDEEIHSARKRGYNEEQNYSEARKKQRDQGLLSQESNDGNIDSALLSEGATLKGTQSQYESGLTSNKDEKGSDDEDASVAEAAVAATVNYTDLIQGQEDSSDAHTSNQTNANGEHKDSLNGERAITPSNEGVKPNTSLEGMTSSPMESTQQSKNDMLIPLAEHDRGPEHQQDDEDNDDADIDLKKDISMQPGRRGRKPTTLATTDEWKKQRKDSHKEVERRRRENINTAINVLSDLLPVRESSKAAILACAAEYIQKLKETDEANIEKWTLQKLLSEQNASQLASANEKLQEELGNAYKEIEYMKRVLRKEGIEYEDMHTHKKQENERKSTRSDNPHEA
Method: protein-binding microarray
Molecule type: double-stranded DNA, one strand shown
Matrix: in vitro
Tested at: 0.8 µM
Notes: whole 60-bp probe, no competitor
Reading: higher = stronger binding
All sequences stand within: … GTCTTGATTCGCTTGACGCTGCTG
Oligonucleotide	fluorescence intensity [a.u.]
GAAGAATACTGACATCAGCTGATTTCTCATAGATAG	2110
CTAAGTCTCTGGAAAAACGTGCTATTTAACGGTTTC	742
CTATAGGTTCACATCCATGTGCACTGGTGCTGCTTC	623
GAAGATTTCAAGAAAAAAATCACGTAGAAATAATAG	708
CTAATTATTCCATGTGTCACAAAACCAGAAAGATTC	909
GAAAGAATACCAGATCACCTGTTTGGATATATATAG	1820
GAACTACTATTTAAGCACGTGCATAAATTGGGTTAG	16300
CTATCCCTTTGGCGACGCGTCACCTGGGACGGGTTC	1100
CTAGGAAAAAAACGTGACGCCTTTTAGCACAAATTC	4170
CTACGTGTCACTGTGCACGAGCAACGAAAAACTTTC	950
CCTAACTACTATATGCAGGTGGCATAGCTTCGTACA	518
GAATCCATTTCATCGTTCGTGACACTTATAAACTAG	675
CTAGTACAAATAAGTCACATGATGATATTTGATTTC	6650
CCTAACTACTATAGTGACAAGATATAGCTTCGTACA	503
CCTAACTACTATAGTCACAATTAATAGCTTCGTACA	561
TGTACGAAGCTATGCCACGAATATATAGTAGTTAGG	537
TGTACGAAGCTATGTCACGGAGATATAGTAGTTAGG	564
CTATTTCTACTCAAACACGTTTGAAAAACGGCATTC	548
GAAGTTCAACAAAGGCACGCCTTTGGTAGAAGATAG	503

Set 4
Target: RNA binding protein fox-1 homolog 2, RRM domain, GST-SBP tag (RBFOX2, Homo sapiens, UniProt O43251-10, residues 100-194)
Method: RNA Bind-n-Seq
Molecule type: RNA
Matrix: in vitro
Tested at: 365 nM
Notes: natural RNA segment, single round, ends assumed
Relative to: no-protein control
Reading: higher = stronger binding
All sequences stand within: GGGAGUUCUACAGUCCGACGAUC … UGGAAUUCUCGGGUGCCAA
Construct (chain): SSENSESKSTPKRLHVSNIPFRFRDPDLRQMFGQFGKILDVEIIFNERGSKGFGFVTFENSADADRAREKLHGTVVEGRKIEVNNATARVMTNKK
Oligonucleotide	RBNS enrichment (R)
ACCCCUUGCUGGCACUGACUUUGCCUUGAACAGACCCUCUCCCCUCCCCCACAAGCCUUUAAUUGAGAGCCGCUCUUUAUAAGUGUUCGCUUGUGCAAAAGGGAAUAGUG	1.24
AGUGUCCCUUGGGUCACACAGCUAAAGCCGAGGUGACCAGUUGUACCCCGAGUGCCAGGCUUGUGAGAUGAGACCAAGAGGGAGGAGGGGAAGGACUCCAUGGGCCAUCG	0.814
UCAGAGGUACUAUGGGGGAGCAGAGGUGGUGGAUGAAUUGAGCUGCUGUGCCAGCGCCGGGCCUUGGAAGCCUUUGACCUGGAUCCUGCACAGUGGGGAGUCAAUGUCCA	0.554
UGGGCCAUUCUGAAGAAUCACAAAGACAGAAGACCUCUGGCUAAGAGCAGGCUUCAAACGAUGUGAAAUAAGCUGAGAUGGCUACAUGAUAUUCUUCAUCUCAUCCUGUG	0.304
GAUCCCUGCUGUUCCCUAAUCCCACCCCCUGCCCUGAGACAGUGAAUGUAGUCCGUGAAGGGAGUGCCUCUCUGGGACCCCCUGUGUUGUUACAGGCUGUGCAGUGCAAC	0.615
UGUUAAUAAACUUUACACAGUAAAUAGACACACUUUCUGCAAUGUACUGACAUGAGUGUCCAAUAUAUGGUAUAUUUUUCUAAUAUAAUACUCUGGUAUGAUUGGUUCUG	0.394
CCUGCUCCACACCCCUAUUUUCCUCUUAAUAAUACGUUUGGGUGAAGACAAAUUAGUGUUUAGUAAUUGCAUCAUCUCUGUGCUUACCUAUACAAACAUAAGUUUAUUUU	0.396
UGCUGGCGGGCUGAGGGUGACAGUCACGUCCGUUUCUUCUGUAUUAGAAGGCUGCGGUGAUUCAAUUAGAUUGUCCCACUGCUGAGACCUGUAGGGCAGCUUCUAACAUG	0.287

Some of these lines once more (set 1):
Oligonucleotide	relative binding energy
TTAATAAT	-0.858 ln ratio
ATGTGTAT	1.09 ln ratio
CGGGTAAT	0.837 ln ratio
TTAGTAAT	0.147 ln ratio
